# Results of several laboratories.
# Protocols differ between the studies behind these lines. Several values in a cell are separate wells, animals, samples, runs or records. Numbers after ± are the reported error.
Compound,organism,test,system,conditions,scale,measurement,result
OC(Cn1cncn1)(Cn1cncn1)c1ccc(F)cc1F,Candida tropicalis,EUCAST,,48 h,,MIC50,100 µM
C(=N\Nc1ccccc1)/c1ccc(-c2ccc(/C=N/Nc3ccccc3)cc2)cc1,Candida albicans,,ATCC MYA-2310 susceptible,,relative to: mammalian CC50 over MIC,selectivity index,< 0.6
CN(C)c1ccc(O)c2c1C[C@H]1C[C@H]3[C@H](N(C)C)C(O)=C(C(N)=O)C(=O)[C@@]3(O)C(O)=C1C2=O,Brugia malayi,,SCID mouse,"dose not given, 6 weeks post-treatment, dosing x28d",,maximum adult worm burden,4 worms per mouse
C=C1[C@H](CO)[C@@H](O)C[C@@H]1n1cnc2c(=O)[nH]c(N)nc21,Hepatitis B virus,measured: HBV pgRNA,chronic HBV infection patients,"oral, 0.5 mg/day, 28 days",relative to: baseline,change in serum pgRNA,-0.96 log10 copies/mL
COC(=O)[C@H](Cc1ccc(O)cc1)NCc1cc2ccccc2nc1SC,Pseudomonas aeruginosa,,,"128 µg/mL, without pentamidine",relative to: control,growth,84.6%
CC(C)C[C@H](NC(=O)[C@H](CCc1ccccc1)NC(=O)CN1CCOCC1)C(=O)N[C@@H](Cc1ccccc1)C(=O)N[C@@H](CC(C)C)C(=O)[C@@]1(C)CO1,Babesia microti,,"BALB/c mouse, infected","intraperitoneal, 0.75 mg/kg on days 5 and 6 post-infection, 6 days post-infection",,parasitemia,42% and 53.9% and 45% and 45.1%
CC1=C(Cn2cc(CBr)nn2)C(=O)c2ccccc2C1=O,Schistosoma mansoni,,NTS,,relative to: L6 CC50 over IC50,selectivity index,17.9
OC(Cn1cncn1)(Cn1cncn1)c1ccc(F)cc1F,Candida albicans,broth microdilution,15,"24 h, compound alone",,MIC,1 µg/mL
COc1ccc(Nc2cnnc3cc(-c4ccc(S(=O)(=O)N5CCN(C)CC5)cc4)ccc23)cc1,Schistosoma mansoni,,adult worms,"10 µM, 24 h",direction not given,phenotypic severity score,0
CC1=C(Cn2cc([Si](C)(C)C)nn2)C(=O)c2ccccc2C1=O,Schistosoma mansoni,,NTS,,relative to: L6 CC50 over IC50,selectivity index,11.6
COc1ccc(Nc2cnnc3cc(-c4ccc(N5CCN(C)CC5)cc4)ccc23)cc1,Schistosoma mansoni,,adult worms,"10 µM, 1 h",direction not given,phenotypic severity score,0
CC(C)n1ncc2c(C(=O)NCC3(C)CNC3)cc(C3CC3)nc21,Enterovirus D68,cytopathic effect,"RD, US/MO/14-18947",5000 nM,,cell protection,104% and 105%
Cc1ccc(Nc2cnnc3ccc(-c4ccc(N5CCCN(C)CC5)cc4)cc23)cn1,Schistosoma mansoni,,adult worms,"10 µM, 24 h",direction not given,phenotypic severity score,4
C[C@@H](CO)CCC[C@@H](C)[C@H]1CC[C@H]2[C@@H]3CC=C4C[C@@H](O)CC[C@]4(C)[C@H]3CC[C@]12C,Human rotavirus,,"MA104, DS-1",,,EC50,720 nM
Cc1ccc(Nc2cnnc3ccc(-c4ccc(S(=O)(=O)N5CCN(C)CC5)cc4)cc23)cn1,Schistosoma mansoni,,adult worms,"10 µM, 24 h",direction not given,phenotypic severity score,2
CC1=C(Cc2cn(CCO)nn2)C(=O)c2ccccc2C1=O,Schistosoma mansoni,,adult worms,"25 µM, 48 h",,killing,55.2%
CC(=O)NC[C@H]1CN(c2ccc(N3CCOCC3)c(F)c2)C(=O)O1,Streptococcus pneumoniae,,"penicillin-resistant, 10 isolates",pH 7.0,,MIC50,1 µg/mL
CC1=C(Cn2cc(CN3CCSC3)nn2)C(=O)c2ccccc2C1=O,Schistosoma mansoni,,adult worms,"25 µM, 24 h",,killing,43.5%
C[C@H]1c2cccc(O)c2C(=O)C2=C(O)[C@]3(O)C(=O)C(C(N)=O)=C(O)[C@@H](N(C)C)[C@@H]3[C@@H](O)[C@@H]21,Brugia malayi,,"SCID mouse, peritoneal cavity","dose not given, 6 weeks post-treatment, dosing x42d",,minimum microfilaria count,0 microfilariae per mouse
CC1=C(Cc2cn(CCN3CCN(C(=O)OC(C)(C)C)CC3)nn2)C(=O)c2ccccc2C1=O,Schistosoma mansoni,,adult worms,"10 µM, 72 h",,killing,44.4%
Cc1ccc(NC(=O)N2Cc3[nH]cnc3C[C@H]2c2nc(-c3ccc4c(c3)OCO4)no2)cc1,Caenorhabditis elegans,,N2,1.56 µM,,median lifespan,21 days
O=[N+]([O-])c1cc(F)c(-c2c(Cl)nc(-c3cccs3)nc2NCC2CCC2)c(F)c1,Schistosoma mansoni,motility,"adult worms, ex vivo",24 h,,EC50,316 nM
Fc1ccc(N/N=C/c2ccc(-c3ccc(/C=N/Nc4ccc(F)cc4)cc3)cc2)cc1,Aspergillus terreus,,ATCC MYA-3633,,relative to: mammalian CC50 over MIC,selectivity ratio,< 0.6
CO[C@H]1/C=C/O[C@@]2(C)Oc3c(C)c(O)c4c(c3C2=O)C2=NC3(CCN(CC(C)C)CC3)NC2=C(NC(=O)/C(C)=C\C=C\[C@H](C)[C@H](O)[C@@H](C)[C@@H](O)[C@@H](C)[C@H](OC(C)=O)[C@@H]1C)C4=O,Mycobacteroides abscessus,"intracellular growth, visual read","THP-1 derived macrophages, ATCC 19977",,,IC90,2950 nM
CCON=C1C=CC(=C(C#N)c2ccccc2)C=C1,Kluyveromyces marxianus,broth dilution,ATCC 204093,"48 h, 37 °C",,MFC,256 µg/mL
C[C@H](CCCC(C)(C)O)[C@H]1CC[C@H]2[C@@H]3CC=C4C[C@@H](O)CC[C@]4(C)[C@H]3CC[C@]12C,Human rotavirus,,"MA104, Wa",,,EC50,160 nM
N=C(N)c1ccc(OCc2ccc(-c3ccccc3)cc2COc2ccc(C(=N)N)cc2)cc1,Escherichia coli,checkerboard,BW25113,"synergy at FICI ≤0.5, unit not given, with: novobiocin",lower = stronger synergy,FICI,≤ 0.031
CCOC(=O)C1=C(CN2CCCC2C(=O)Nc2ccc(B(O)O)cc2)NC(c2nccs2)=NC1c1ccc(F)cc1Br (stereo not drawn),Hepatitis B virus,"HBV DNA reduction, qPCR, measured: positive-strand DNA",HepDES19,3 days,,EC50,220 ± 80 nM
COc1ccc(Nc2cnnc3cc(-c4cnc(N5CCN(C)CC5)nc4)ccc23)cc1Cl,Schistosoma mansoni,,adult worms,"10 µM, 48 h",direction not given,phenotypic severity score,1
CC1=C(Cn2ccnc2[N+](=O)[O-])C(=O)c2ccccc2C1=O,Schistosoma mansoni,,adult worms,"10 µM, 72 h",,killing,44.4%
Nc1nc(-c2ccccc2)nc2[nH]nc(Nc3ccc(C(F)(F)F)cc3)c12,coxsackievirus B3,,"31-1-93, NMRI mice, CVB3 chronic myocarditis","oral, 100 mg/kg twice daily, day 19, dosed days 3 to 10, score scale 0 to 7",direction not given,clinical score,0.3
Fc1cc(F)c(-c2c(Cl)nc(-c3cccs3)nc2NC2CCC2)c(F)c1,Schistosoma mansoni,worm motility,adult worms ex vivo,24 h,,EC50,550 nM
CN1CCN(c2ccc(-c3ccc4c(Nc5cnccn5)cnnc4c3)cc2)CC1,Schistosoma mansoni,,adult worms,"10 µM, 1 h",direction not given,phenotypic severity score,0
N=C(N)c1ccc(OCCCCCOc2ccc(C(=N)N)cc2)cc1,Escherichia coli,,BW25113,"concentration not given, lowest-FICI combination, with: novobiocin",,MIC in combination,50 µg/mL
CC1=C(Cn2cc(CO)nn2)C(=O)c2ccccc2C1=O,Schistosoma mansoni,,adult worms,"10 µM, 24 h",,killing,39.4%
Cc1cc(OC(C)C)ccc1C(=O)C(C)(C)NC(=O)c1sccc1C,Pyrenophora graminea,mycelial growth,PSA medium,20 °C,,EC50,0.26 µg/mL
COc1ccc(Nc2cnnc3ccc(-c4ccc(S(=O)(=O)N5CCN(C)CC5)cc4)cc23)cc1,Schistosoma mansoni,,adult worms,"10 µM, 5 h",direction not given,phenotypic severity score,0
COc1cc(F)c(-c2c(Cl)nc(-c3cccs3)nc2NCC2(C)COC2)c(F)c1,Schistosoma mansoni,worm motility,adult worms ex vivo,24 h,,EC50,< 300 nM
COc1ccc(Nc2cnnc3ccc(-c4cnc(N5CCN(C)CC5)nc4)cc23)cc1,Schistosoma mansoni,,adult worms,"10 µM, 5 h",direction not given,phenotypic severity score,0
CC(=O)ON=C1C=CC(=C(C#N)c2ccccc2)C=C1,Candida albicans,planktonic growth,,"concentration not given, MIC, 2 and 4",,growth rate,decreased
COC(=O)[C@H](Cc1c[nH]c2ccccc12)NCc1cc2ccccc2nc1OC,Pseudomonas aeruginosa,,,"8 µg/mL, without pentamidine",relative to: control,growth,96.3%
CC1=C(Cn2cc(CNC(=O)OC(C)(C)C)nn2)C(=O)c2ccccc2C1=O,Schistosoma mansoni,,adult worms,"25 µM, 48 h",,killing,54.5%

# A few entries again:
Compound,organism,test,system,conditions,scale,measurement,result
COc1cc(F)c(-c2c(Cl)nc(-c3cccs3)nc2NCC2(C)COC2)c(F)c1,Schistosoma mansoni,worm motility,adult worms ex vivo,24 h,,EC50,< 300 nM
COc1ccc(Nc2cnnc3ccc(-c4cnc(N5CCN(C)CC5)nc4)cc23)cc1,Schistosoma mansoni,,adult worms,"10 µM, 5 h",direction not given,phenotypic severity score,0
CC(=O)ON=C1C=CC(=C(C#N)c2ccccc2)C=C1,Candida albicans,planktonic growth,,"concentration not given, MIC, 2 and 4",,growth rate,decreased
COC(=O)[C@H](Cc1c[nH]c2ccccc12)NCc1cc2ccccc2nc1OC,Pseudomonas aeruginosa,,,"8 µg/mL, without pentamidine",relative to: control,growth,96.3%
CC1=C(Cn2cc(CNC(=O)OC(C)(C)C)nn2)C(=O)c2ccccc2C1=O,Schistosoma mansoni,,adult worms,"25 µM, 48 h",,killing,54.5%
